Measured values collected from several papers.
Numbered parts are unrelated; each lists some results of a single study.
Sequence of UniProt Q9NY57 (whole entry, looked up): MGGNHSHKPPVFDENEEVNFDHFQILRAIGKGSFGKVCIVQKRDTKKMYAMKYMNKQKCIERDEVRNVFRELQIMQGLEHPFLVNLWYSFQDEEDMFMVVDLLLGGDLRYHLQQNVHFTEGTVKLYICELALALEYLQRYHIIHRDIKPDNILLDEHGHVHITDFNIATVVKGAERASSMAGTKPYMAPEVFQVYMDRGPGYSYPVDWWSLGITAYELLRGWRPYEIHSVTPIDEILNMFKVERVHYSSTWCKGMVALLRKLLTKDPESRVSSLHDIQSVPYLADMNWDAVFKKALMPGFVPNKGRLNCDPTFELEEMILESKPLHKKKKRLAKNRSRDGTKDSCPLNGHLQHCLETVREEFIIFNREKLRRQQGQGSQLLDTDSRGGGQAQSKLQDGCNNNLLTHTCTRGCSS
Sequence of UniProt P35916 (whole entry, looked up): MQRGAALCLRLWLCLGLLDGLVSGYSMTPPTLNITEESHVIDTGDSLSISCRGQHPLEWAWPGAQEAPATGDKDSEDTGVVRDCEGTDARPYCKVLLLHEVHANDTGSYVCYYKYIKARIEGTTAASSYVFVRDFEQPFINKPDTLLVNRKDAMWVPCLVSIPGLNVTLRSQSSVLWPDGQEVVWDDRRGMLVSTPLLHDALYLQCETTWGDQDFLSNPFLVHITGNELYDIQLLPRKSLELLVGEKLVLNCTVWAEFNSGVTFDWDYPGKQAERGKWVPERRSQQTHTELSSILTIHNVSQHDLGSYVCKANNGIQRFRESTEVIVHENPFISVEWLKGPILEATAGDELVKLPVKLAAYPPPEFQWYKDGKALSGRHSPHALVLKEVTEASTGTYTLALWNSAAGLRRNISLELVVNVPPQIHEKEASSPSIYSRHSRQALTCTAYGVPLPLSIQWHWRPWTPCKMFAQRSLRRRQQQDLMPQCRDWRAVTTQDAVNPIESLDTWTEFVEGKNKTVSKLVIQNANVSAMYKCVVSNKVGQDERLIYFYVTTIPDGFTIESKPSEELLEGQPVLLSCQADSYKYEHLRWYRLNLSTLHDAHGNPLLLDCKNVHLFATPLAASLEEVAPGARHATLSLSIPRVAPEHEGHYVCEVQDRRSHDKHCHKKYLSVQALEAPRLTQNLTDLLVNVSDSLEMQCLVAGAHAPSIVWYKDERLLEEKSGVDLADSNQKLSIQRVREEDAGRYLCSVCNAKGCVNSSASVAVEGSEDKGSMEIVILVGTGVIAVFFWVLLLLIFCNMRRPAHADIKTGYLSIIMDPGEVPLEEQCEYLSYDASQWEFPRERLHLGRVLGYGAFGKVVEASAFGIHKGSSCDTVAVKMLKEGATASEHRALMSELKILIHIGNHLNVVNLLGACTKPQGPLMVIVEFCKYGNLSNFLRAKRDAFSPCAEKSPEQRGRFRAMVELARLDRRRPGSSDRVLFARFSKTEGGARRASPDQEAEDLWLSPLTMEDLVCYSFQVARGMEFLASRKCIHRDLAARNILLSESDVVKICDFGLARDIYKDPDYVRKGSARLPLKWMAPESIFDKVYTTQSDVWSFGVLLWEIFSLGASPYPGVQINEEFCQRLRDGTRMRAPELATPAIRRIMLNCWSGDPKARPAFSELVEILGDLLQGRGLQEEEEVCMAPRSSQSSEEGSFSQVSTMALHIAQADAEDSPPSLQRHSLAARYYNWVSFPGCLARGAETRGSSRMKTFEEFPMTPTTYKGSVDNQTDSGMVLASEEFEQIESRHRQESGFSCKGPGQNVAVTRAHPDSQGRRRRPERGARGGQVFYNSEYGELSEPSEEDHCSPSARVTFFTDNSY
Sequence of UniProt Q9UM73 (whole entry, looked up): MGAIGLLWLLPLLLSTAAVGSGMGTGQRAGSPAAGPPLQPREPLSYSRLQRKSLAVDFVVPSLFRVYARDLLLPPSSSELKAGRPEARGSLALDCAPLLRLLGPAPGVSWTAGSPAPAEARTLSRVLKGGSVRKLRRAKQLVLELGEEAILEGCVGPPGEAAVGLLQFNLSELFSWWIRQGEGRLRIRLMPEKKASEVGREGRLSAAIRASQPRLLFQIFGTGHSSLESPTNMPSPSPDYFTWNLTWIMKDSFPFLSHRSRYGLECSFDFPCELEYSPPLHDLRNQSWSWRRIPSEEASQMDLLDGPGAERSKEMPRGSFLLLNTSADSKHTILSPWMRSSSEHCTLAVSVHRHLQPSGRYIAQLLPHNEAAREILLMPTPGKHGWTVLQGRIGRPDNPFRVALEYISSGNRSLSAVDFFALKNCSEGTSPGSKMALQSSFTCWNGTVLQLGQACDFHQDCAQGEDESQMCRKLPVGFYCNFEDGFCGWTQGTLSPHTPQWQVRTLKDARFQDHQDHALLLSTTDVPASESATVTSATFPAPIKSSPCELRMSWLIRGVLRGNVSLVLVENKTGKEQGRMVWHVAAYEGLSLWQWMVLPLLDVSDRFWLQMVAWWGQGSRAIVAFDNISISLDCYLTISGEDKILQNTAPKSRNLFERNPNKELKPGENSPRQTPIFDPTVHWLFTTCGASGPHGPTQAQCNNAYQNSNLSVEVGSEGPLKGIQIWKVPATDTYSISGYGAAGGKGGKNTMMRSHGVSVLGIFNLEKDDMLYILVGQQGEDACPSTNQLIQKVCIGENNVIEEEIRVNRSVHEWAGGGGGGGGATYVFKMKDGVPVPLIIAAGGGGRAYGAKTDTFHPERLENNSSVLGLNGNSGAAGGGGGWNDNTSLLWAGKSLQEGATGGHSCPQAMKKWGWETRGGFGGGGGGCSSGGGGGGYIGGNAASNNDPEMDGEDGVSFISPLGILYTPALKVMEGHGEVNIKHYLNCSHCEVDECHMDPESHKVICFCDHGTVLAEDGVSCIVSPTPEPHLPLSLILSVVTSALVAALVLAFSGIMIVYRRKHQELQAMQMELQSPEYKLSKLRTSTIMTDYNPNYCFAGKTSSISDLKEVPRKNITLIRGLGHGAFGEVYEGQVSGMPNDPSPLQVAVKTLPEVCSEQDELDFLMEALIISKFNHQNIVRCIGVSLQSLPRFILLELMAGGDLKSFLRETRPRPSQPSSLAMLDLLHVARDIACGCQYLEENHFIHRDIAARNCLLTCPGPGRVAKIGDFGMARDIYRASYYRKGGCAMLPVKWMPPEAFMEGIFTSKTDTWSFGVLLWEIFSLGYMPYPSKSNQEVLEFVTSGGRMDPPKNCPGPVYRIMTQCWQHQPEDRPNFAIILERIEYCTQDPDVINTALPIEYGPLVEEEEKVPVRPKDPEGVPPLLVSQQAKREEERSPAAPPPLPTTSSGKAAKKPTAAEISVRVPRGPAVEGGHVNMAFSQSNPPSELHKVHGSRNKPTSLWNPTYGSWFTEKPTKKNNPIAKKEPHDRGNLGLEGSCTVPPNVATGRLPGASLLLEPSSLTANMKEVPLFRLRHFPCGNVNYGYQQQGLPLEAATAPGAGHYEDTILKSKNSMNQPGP
Sequence of UniProt Q16512 (whole entry, looked up): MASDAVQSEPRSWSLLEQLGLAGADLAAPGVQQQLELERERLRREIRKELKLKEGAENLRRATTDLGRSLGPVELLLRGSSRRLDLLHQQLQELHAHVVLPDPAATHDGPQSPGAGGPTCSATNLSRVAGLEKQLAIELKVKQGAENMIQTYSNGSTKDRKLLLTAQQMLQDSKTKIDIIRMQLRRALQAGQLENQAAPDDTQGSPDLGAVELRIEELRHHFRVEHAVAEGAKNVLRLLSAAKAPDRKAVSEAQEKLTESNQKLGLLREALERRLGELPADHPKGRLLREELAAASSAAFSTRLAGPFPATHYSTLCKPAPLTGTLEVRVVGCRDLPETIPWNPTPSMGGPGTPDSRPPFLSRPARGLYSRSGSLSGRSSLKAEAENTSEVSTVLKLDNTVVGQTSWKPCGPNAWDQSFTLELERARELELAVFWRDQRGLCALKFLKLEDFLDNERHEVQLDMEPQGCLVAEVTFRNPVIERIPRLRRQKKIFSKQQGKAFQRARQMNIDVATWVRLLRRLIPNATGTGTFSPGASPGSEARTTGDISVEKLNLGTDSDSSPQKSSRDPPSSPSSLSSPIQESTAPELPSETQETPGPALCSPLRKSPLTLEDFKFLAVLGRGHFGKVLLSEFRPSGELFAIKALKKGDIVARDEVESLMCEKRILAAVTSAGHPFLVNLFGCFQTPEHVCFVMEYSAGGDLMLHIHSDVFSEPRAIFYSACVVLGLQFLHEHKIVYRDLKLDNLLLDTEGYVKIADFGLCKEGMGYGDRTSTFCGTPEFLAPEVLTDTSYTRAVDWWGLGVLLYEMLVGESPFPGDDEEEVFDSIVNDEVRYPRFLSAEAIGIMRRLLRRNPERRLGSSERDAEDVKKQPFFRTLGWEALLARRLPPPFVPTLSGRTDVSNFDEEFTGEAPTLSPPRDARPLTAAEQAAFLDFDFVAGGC
Sequence of UniProt Q8NI60 (whole entry, looked up): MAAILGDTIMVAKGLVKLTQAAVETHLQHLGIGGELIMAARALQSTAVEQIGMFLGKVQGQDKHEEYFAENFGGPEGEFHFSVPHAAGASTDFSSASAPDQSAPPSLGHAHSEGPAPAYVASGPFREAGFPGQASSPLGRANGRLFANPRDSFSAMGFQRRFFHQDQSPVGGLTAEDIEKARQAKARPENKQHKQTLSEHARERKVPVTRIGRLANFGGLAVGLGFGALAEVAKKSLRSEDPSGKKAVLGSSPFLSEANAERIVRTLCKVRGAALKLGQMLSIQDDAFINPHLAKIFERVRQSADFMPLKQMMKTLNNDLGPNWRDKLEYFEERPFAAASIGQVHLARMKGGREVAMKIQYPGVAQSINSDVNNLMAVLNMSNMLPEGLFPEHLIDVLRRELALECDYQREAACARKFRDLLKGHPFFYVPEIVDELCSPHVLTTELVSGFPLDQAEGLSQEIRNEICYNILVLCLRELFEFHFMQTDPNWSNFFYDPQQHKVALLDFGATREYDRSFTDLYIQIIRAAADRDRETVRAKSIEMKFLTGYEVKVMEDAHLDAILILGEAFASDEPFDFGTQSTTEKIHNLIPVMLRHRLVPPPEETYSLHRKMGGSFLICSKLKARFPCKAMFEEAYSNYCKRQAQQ

Block 1
Structure (SMILES): COc1ccc(-c2c(Nc3ccccn3)[nH]c3c(C4=CCCCC4)c(-c4ccccc4)nn3c2=O)cc1
Species: cancer patients
Sample: plasma
Route: oral
Time: cycle 1 day 15
Setting: multiple dosing
dose	effective half-life, geometric mean
200 mg once daily	70.2 h
150 mg once daily	59 h
400 mg once daily	31.8 h
50 mg once daily	69.9 h
100 mg once daily	42.6 h

Block 2
Structure (SMILES): O=C(Nc1cccnn1)N1CCC(=Cc2cccc(Oc3ccc(C(F)(F)F)cn3)c2)CC1
Tested at: 1 µM
target	effect on	technique	remaining binding [%]
NUAK family SNF1-like kinase 1 (NUAK1, Homo sapiens, UniProt O60285)	cell-free assay	competition with immobilised ligand	86
Serine/threonine-protein kinase DCLK1 (DCLK1, Homo sapiens, UniProt O15075)	cell-free assay	competition with immobilised ligand	100
Atypical kinase COQ8A, mitochondrial (COQ8A, Homo sapiens, UniProt Q8NI60)	cell-free assay	competition with immobilised ligand	78
Tyrosine-protein kinase ABL1, non-phosphorylated (ABL1, Homo sapiens, UniProt P00519, F317I)	binding	competition with immobilised ligand	100
Protein kinase C iota type (PRKCI, Homo sapiens, UniProt P41743)	cell-free assay	competition with immobilised ligand	81
Serine/threonine-protein kinase 32B (STK32B, Homo sapiens, UniProt Q9NY57)	cell-free assay	competition with immobilised ligand	82
Mitogen-activated protein kinase 1 (MAPK1, Homo sapiens, UniProt P28482)	cell-free assay	competition with immobilised ligand	92
Transient receptor potential cation channel subfamily M member 6 (TRPM6, Homo sapiens, UniProt Q9BX84)	cell-free assay	competition with immobilised ligand	98
Serine/threonine-protein kinase MRCK gamma (CDC42BPG, Homo sapiens, UniProt Q6DT37)		competition binding	84
Serine/threonine-protein kinase WNK1 (WNK1, Homo sapiens, UniProt Q9H4A3)	cell-free assay	competition with immobilised ligand	100

Block 3
Cell line: mouse MPNST tumor cells
Technique: high-content nuclear imaging
Measured: cell number
Tested at: 10 µM
Time: 12 h
Setting: mean of 2 replicates
Relative to: plate mean
Reading: higher = more cells
SMILES	nuclei count [z-score]
COc1c2occc2c(OC)c2c(=O)cc(C)oc12	0.561
C=C1C(=O)O[C@@H]2C[C@@]3(C)CCC[C@H](C)C3=C[C@H]12	-6
O=C1[C@H]2CCCC[C@H]2C(=O)N1CCCCN1CCN(c2nsc3ccccc23)CC1	-1.47
O=C(O)c1cc(-c2ccc(C3CCNCC3)cc2)c2ccc(-c3ccc(C(F)(F)F)cc3)cc2c1	1.52
CCOC(=O)N1CCC(Nc2c(NCCN3CCN(c4cccc(C(F)(F)F)c4)CC3)c(=O)c2=O)CC1	2.56
CC(C)N(CCC(=O)c1ccc2ccccc2c1)Cc1ccccc1	-0.391
Cc1cccc2c1NC(=O)C2(c1ccc(O)cc1)c1ccc(O)cc1	0.414
C[C@H]1C[C@@H]2[C@H]([C@@H](O)C[C@@]3(C)[C@H]2CC[C@]3(O)C(=O)CO)[C@@]2(C)C=CC(=O)C=C12	3.93

Block 4
SMILES: COc1cc2ncc(-c3ccccc3)nc2cc1OC
Effect on: enzyme activity
Action: inhibitor
Tested at: 0.5 µM
Relative to: control
target	remaining activity [%]
Serine/threonine-protein kinase NLK (NLK, Homo sapiens, UniProt Q9UBE8)	89.3
Cyclin-dependent kinase 3, with cyclin E (CDK3, Homo sapiens, UniProt Q00526)	83.8
Tyrosine-protein kinase Fyn (FYN, Homo sapiens, UniProt P06241)	100
Insulin receptor (INSR, Homo sapiens, UniProt P06213)	89.1
Serine/threonine-protein kinase MRCK alpha (CDC42BPA, Homo sapiens, UniProt Q5VT25)	85.4
Proto-oncogene tyrosine-protein kinase Src (SRC, Homo sapiens, UniProt P12931)	96.1
Serine/threonine-protein kinase TAO3 (TAOK3, Homo sapiens, UniProt Q9H2K8)	88.9
Megakaryocyte-associated tyrosine-protein kinase (MATK, Homo sapiens, UniProt P42679)	101
Vascular endothelial growth factor receptor 3 (FLT4, Homo sapiens, UniProt P35916)	90.4
LIM domain kinase 1 (LIMK1, Homo sapiens, UniProt P53667)	77.7
Tyrosine-protein kinase Fer (FER, Homo sapiens, UniProt P16591)	80
Serine/threonine-protein kinase 25 (STK25, Homo sapiens, UniProt O00506)	90.7
Serine/threonine-protein kinase Nek11 (NEK11, Homo sapiens, UniProt Q8NG66)	114
Homeodomain-interacting protein kinase 1 (HIPK1, Homo sapiens, UniProt Q86Z02)	93.4
PAS domain-containing serine/threonine-protein kinase (PASK, Homo sapiens, UniProt Q96RG2)	98.9
RAC-alpha serine/threonine-protein kinase (AKT1, Homo sapiens, UniProt P31749)	99.2
cAMP-dependent protein kinase catalytic subunit PRKX (PRKX, Homo sapiens, UniProt P51817)	97.4
Serine/threonine-protein kinase N1 (PKN1, Homo sapiens, UniProt Q16512)	104
Tyrosine-protein kinase Fgr (FGR, Homo sapiens, UniProt P09769)	85.4
ALK tyrosine kinase receptor (ALK, Homo sapiens, UniProt Q9UM73)	94.1
MAP/microtubule affinity-regulating kinase 3 (MARK3, Homo sapiens, UniProt P27448)	98.2
Tyrosine-protein kinase ITK/TSK (ITK, Homo sapiens, UniProt Q08881)	97.8

Some of these lines once more (block 1):
dose	effective half-life, geometric mean
200 mg once daily	70.2 h
400 mg once daily	31.8 h
50 mg once daily	69.9 h
100 mg once daily	42.6 h
150 mg once daily	59 h
